Results collected from several papers.
Compare with care: the assays were run in different laboratories. ± gives the spread as reported.
UniProt Q70CQ1, sequence (whole entry, looked up): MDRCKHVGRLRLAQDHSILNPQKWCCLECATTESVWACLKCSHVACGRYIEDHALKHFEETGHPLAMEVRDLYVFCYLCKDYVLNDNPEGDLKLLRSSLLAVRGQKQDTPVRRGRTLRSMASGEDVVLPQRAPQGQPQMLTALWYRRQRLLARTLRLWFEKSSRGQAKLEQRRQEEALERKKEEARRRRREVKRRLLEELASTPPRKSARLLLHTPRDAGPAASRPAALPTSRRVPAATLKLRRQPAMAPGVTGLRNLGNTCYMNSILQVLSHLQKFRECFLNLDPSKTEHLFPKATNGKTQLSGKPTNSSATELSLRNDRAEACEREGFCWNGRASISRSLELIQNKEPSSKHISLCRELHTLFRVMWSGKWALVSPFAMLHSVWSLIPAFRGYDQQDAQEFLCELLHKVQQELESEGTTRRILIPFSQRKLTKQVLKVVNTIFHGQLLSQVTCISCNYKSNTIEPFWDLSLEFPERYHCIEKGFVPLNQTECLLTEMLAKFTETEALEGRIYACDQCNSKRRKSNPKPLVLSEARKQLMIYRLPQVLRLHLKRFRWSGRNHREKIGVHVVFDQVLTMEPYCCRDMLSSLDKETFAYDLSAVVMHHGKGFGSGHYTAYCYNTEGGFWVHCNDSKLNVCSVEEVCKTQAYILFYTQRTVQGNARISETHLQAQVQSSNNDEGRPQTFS
UniProt Q9Y2K6, sequence (whole entry, looked up): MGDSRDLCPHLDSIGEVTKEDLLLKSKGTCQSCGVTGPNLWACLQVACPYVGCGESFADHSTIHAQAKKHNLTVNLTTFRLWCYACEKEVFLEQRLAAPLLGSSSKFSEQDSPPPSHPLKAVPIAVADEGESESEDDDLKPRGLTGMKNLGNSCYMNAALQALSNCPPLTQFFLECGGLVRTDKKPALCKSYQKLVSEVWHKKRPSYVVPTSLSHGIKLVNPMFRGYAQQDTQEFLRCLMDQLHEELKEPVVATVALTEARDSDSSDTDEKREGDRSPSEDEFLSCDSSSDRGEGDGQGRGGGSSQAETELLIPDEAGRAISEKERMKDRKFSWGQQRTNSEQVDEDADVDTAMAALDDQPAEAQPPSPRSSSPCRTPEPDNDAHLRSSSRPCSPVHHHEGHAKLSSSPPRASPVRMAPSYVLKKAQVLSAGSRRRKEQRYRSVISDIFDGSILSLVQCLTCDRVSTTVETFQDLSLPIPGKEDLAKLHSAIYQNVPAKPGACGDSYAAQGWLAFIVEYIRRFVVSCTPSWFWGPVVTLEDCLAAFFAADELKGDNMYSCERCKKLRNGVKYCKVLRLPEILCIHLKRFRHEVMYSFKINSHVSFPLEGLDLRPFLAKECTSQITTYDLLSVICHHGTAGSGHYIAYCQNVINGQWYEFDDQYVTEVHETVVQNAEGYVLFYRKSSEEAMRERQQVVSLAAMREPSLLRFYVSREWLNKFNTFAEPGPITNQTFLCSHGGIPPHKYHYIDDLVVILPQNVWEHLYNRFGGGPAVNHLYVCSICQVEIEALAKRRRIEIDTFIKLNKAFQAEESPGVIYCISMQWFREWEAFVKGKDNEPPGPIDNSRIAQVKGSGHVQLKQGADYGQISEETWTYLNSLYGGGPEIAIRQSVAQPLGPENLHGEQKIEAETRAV

`c1ccc(CN2CCCN3CCN(Cc4ccccc4)CCCN(CC2)Cc2cccc(n2)C3)cc1` gave an intact complex of 95% (64Cu complex; 12 h, pH 7.4, 37 °C, together with: DOTA excess).
With `C=CC(=O)Nc1cc(Nc2nccc(-c3cn(C4CC4)c4ccccc34)n2)c(OC)cc1N(C)CCN(C)C` the GLU level was 12.5 ± 0.663 mmol/L (BALB/c nude mouse, LU0387 xenograft, serum; oral, 40 mg/kg).
For `CO[C@H]1C[C@@H]2CC[C@@H](C)[C@@](O)(O2)C(=O)C(=O)N2CCCC[C@H]2C(=O)O[C@H]([C@H](C)C[C@@H]2CC[C@@H](O)[C@H](OC)C2)CC(=O)[C@H](C)/C=C(\C)[C@@H](O)[C@@H](OC)C(=O)[C@H](C)C[C@H](C)/C=C/C=C/C=C/1C`, the heart rate was 32 ± 2.8 beats/min (healthy adult horses; intravenous, 0.06 mg/kg, 6 h).
Under “QTc interval (Bazett)”, `CCN1/C(=C/C(C)=O)Sc2ccc(F)cc21` is recorded as 328 ± 14 ms (cynomolgus monkey; oral, 100 mg/kg, 2 h post-dose).
Under “cumulative release in stomach”, `C#C[C@]1(O)CC[C@H]2[C@@H]3CCc4cc(O)ccc4[C@H]3CC[C@@]21C` is recorded as 82% (fed state dissolution; 1.25 h).
The Kd of `O=C(O)Cn1ccc2ccccc2c1=O` is reported as 224 µM (Ubiquitin carboxyl-terminal hydrolase 20, ZnF-UBD domain (USP20, Homo sapiens, UniProt Q9Y2K6)).
For `Cl.[2H]C([2H])([2H])CC(=O)c1cnc(NC(=O)C2CC2)cc1Nc1cccc(-c2ncn(C([2H])([2H])[2H])n2)c1OC`, the Tmax was 2.01 h (median; human; oral, 20 mg twice daily, day 1, fasted, tablet, multiple dose).
With `CCOC(=O)N1C[C@@H](c2cc(Cl)cc(Cl)c2)N[C@@H](c2ccc(F)c(C#N)c2)C1` the logD was > 4.7 (shake-flask, 1-octanol/buffer; pH 7.4).
The Kd of `Cc1ccc(C(=O)O)cc1S(=O)(=O)Nc1cccc(C(=O)CCC(=O)O)c1` is reported as 187 µM (Ubiquitin carboxyl-terminal hydrolase 49, ZnF-UBD domain (USP49, Homo sapiens, UniProt Q70CQ1)).
`CCOc1ccc2ccc(=O)oc2c1` has a hepatic clearance of > 75.9 mL/min/kg (CD-1 mouse, male, hepatocytes; 1 µM).
Under “treatment-related adverse events”, `FC(F)(F)c1ccc(CNc2ccc(Cc3c[nH]c4ncc(Cl)cc34)cn2)cn1` is recorded as 14% (refers to: Insomnia; patients with advanced solid tumours, non-TGCT cohort; oral, 1000 mg/day, any grade).
For `[O]=[Co].[O]=[Co][O][Co]=[O]`, “creatinine-corrected cobalt concentration” read 0.08 µg/µmol creatinine (rat, male, urine, 24-h collection; oral gavage, single, 300 mg/kg (220 mg Co/kg), day 2, vehicle 0.5% HPMC).
`Cn1cnc2c(F)c(Nc3ccc(Br)cc3Cl)c(C(=O)NOCCO)cc21`: “absorption lag time” 0.62 h (population PK model; human, plasma; oral, nonlinear absorption model, fed).
`C[C@@]1(c2cc(NC(=O)c3ccc(C#N)cn3)ccc2F)C=CSC(N)=N1` gave a dose-normalised AUC(0-last) of 95.5 ng·h/mL (elderly humans, both sexes, plasma; oral, 150 mg single dose).
`CC(C)Nc1ccnc(Nc2cccc(-c3cccnc3)c2)n1` has an efflux ratio of 0.68 (MDCKII-WT cells; 10 µM, pH 7.4; baseline: Papp B-A over A-B).
`Cc1cc(C)c(CNC(=O)c2cc(Cl)c3c(c2C)O[C@@](C)([C@H]2CC[C@H](N(C)C)CC2)O3)c(=O)[nH]1` — result for “patients with TEAE”: 20.8% (CTCAE v4.0, refers to: abdominal pain; human relapsed/refractory NHL; oral, 200 mg once daily, onset after cycle 1 day 1, overall treatment period).
The intrinsic clearance of `C#C[C@]1(O)CC[C@H]2[C@@H]3CCc4cc(O)ccc4[C@H]3CC[C@@]21C` is reported as 149 µL/min/mg (substrate depletion; Sprague-Dawley rat, male, liver S9; 3 µM, pH 7.4).
For `CC(C)n1c(Nc2cccnc2)nc2cnc(Nc3ccc(N4CCN(C)CC4)cc3)nc21`, “subjects with TEAE” read 2.4% (refers to: LDL cholesterol increased; healthy human, male; oral, dose not given, CTCAE grade 1-3).
